Published values of several laboratories.
A part holds a random share of what one study measured. Changes are numbered by the printed parent chain.

Study 1
Target: CCND3, cyclin fold, Cln2 fusion (human)
Technique: yeast growth competition, sequencing
Medium: yeast
Notes: weak parent motif
Baseline: not given
Reading: higher = stronger binding
Starting sequence: RBL2 docking peptide (human); STTRRRLFVENDS
| Substitution | normalised enrichment score |
| --- | --- |
| SKTRRRLFVENDS [T2K] | 0.242 |
| STTRRRLFVENQS [D12Q] | 0.0598 |
| STTRRLLFVENDS [R6L] | 0.2 |
| STTRRRLFVEGDS [N11G] | 0.165 |
| STTRDRLFVENDS [R5D] | 0.162 |
| STTRRRLFVEIDS [N11I] | 0.0336 |
| STTRRRKFVENDS [L7K] | 0.0801 |
| STNRRRLFVENDS [T3N] | 0.0723 |
| SWTRRRLFVENDS [T2W] | 0.129 |
| STTRRRLFRENDS [V9R] | 0.105 |
| NTTRRRLFVENDS [S1N] | 0.103 |
| STTRFRLFVENDS [R5F] | 0.0625 |
| STTRRRLFVEEDS [N11E] | 0.0889 |
| STTRRRNFVENDS [L7N] | 0.126 |
| STTRRRLFVENDH [S13H] | 0.147 |
| STTRRRPFVENDS [L7P] | 0.0181 |
| STTRHRLFVENDS [R5H] | 0.228 |
| STTRRRLAVENDS [F8A] | 0.0464 |
| STTRRRLRVENDS [F8R] | 0.136 |
| SATRRRLFVENDS [T2A] | 0.119 |
| STTRRRLFVENDE [S13E] | 0.0668 |
| STTMRRLFVENDS [R4M] | 0.101 |
| STTRRRLFVENDW [S13W] | 0.116 |
| STTRKRLFVENDS [R5K] | 0.0593 |
| STWRRRLFVENDS [T3W] | 0.154 |

Study 2
Target: Sal-like protein 4, full length isoform B (SALL4, Homo sapiens, UniProt Q9UJQ4-2, residues 1-616)
Technique: universal PBM
Molecule type: double-stranded DNA, one strand shown
Medium: in vitro
Tested at: not given
Notes: 8-mer, flanks averaged, mean of replicates
Reading: higher = stronger binding
| Sequence | E-score |
| --- | --- |
| AGGTAAAG | 0.111 |
| ACTGTGAG | -0.0638 |
| CCCCCAGG | -0.317 |
| ACATCAGG | 0.0985 |
| CCGGTACC | -0.267 |
| CTGATTCA | -0.00148 |
| TCATGCGA | -0.0121 |
| CGCTTCTC | -0.245 |
| GAGTCTTA | 0.0282 |
| TAGGTAGA | 0.0365 |
| AGGAATCC | -0.191 |
| GGAGCGCA | -0.303 |
| AGATTGGC | -0.157 |
| AAAGCCAG | -0.226 |
| AAAAACTA | 0.225 |
| CGTGTGTC | -0.113 |
| AACAGAGT | 0.0252 |
| ATGCCAAA | 0.155 |
| TAATCTAA | 0.231 |
| TCTGACCA | 0.0946 |
| ACTTCCTC | -0.208 |
| AGACTCAG | -0.123 |
| TAAACGTA | 0.25 |

Study 3
Target: Fragile X messenger ribonucleoprotein 1, C-terminal low-complexity region (Fmr1, Mus musculus, UniProt P35922)
Technique: RNA Bind-n-Seq
Molecule type: RNA
Medium: in vitro
Tested at: 200 nM
Notes: whole 134-nt RNA, ends assumed
With: 150 mM LiCl
Baseline: input library
Reading: higher = stronger binding
Each molecule: 7-deaza-guanosine replaces G
| Sequence | log2 enrichment |
| --- | --- |
| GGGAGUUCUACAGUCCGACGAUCUCAAGUCCUGUGCUACACAUCGUAUGUACCGAAUCGGUUUGGGUUUGGGUUUGGGAAAGUAUUAUGUUACGCCGUUCGGAUCUGCACUUCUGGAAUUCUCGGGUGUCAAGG | -1.96 |
| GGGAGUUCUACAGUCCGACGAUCCCUCAAGUCCUGUGCUACACAUCGUAUGUACCGAAUCGGGGAGGAGGGGAGGAAAGUAUUAUGUUACGCCGUUCGGAUCUGCACUUCCAGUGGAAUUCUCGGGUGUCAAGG | -0.268 |
| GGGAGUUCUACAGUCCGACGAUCCACAGACAACACGCACCCACACAGACACAGAGGGAAGGGGUUGGGAUGGGGACAGGGUGCACAGCAGGGCGGGGUAGGACCCCAGUCCCUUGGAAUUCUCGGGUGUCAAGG | -0.958 |
| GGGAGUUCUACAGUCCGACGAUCUCCUGUGCUACACAUCGUAUGUACCGAAUCGGUUUUUUUGGUUUUUUUGGAAAAAAAGGAAAGUAUUAUGUUACGCCGUUCGGAUCUGCAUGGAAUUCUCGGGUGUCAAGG | -2.04 |
| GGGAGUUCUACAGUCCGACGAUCCAAGUCCUGUGCUACACAUCGUAUGUACCGAAUCGGGUGGGUUUUUGGGUUUGGGAAAGUAUUAUGUUACGCCGUUCGGAUCUGCACUUCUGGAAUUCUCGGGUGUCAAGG | -1.51 |
| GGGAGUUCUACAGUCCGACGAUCUACUAUGAAGCCUUGUGCAAAUCCCUCGACUGGCAGAUAGACGUGGACCUACUCAAUAAAAUGAAGAAGGCAAAUGAAGAUGAGUUGAAGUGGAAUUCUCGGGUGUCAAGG | -1.09 |
| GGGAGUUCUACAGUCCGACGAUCACGCUCCAUGAAAGCUAGGAGGGAGUGAAAUAUCAGUGAUCAUCGCAAGGAAGGAGGCAGACAAGAGUAAGGCACACCUGACUCUUAGGAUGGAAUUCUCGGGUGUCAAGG | -2.02 |
| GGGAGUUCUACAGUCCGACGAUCCACAGACAACACGCACCCACACAGACACAGAGGGAAGGGGUUGGGAUGGGGACAGGGUGCACAGCAGGGCGGUGUAGGACCCCAGCCCCUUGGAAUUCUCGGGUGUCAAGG | 0.301 |
| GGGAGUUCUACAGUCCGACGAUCUGGCCCUGGUGGCAUGCGGGGAGGAAGAGGUGGCCCCAUGGAUCGUGGUGGUCCCGGUGGAAUGUUCAGAGGUGGCCGUGGUGGAGACAGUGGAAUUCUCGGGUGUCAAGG | 0.21 |
| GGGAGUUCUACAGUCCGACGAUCCUGUGCUACACAUCGUAUGUACCGAAUCGGGGAAAAAGGGGAAAAAAAGGGGAAAAAGGGGAAAGUAUUAUGUUACGCCGUUCGGAUCUGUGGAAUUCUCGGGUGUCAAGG | 1.12 |
| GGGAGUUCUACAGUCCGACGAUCGUCCUGUGCUACACAUCGUAUGUACCGAAUCGGGGAAAAAGGGGAGGGGUUUUUGGGGAAAGUAUUAUGUUACGCCGUUCGGAUCUGCACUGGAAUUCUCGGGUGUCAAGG | 0.201 |

Study 4
Target: Histone acetyltransferase KAT6A, winged helix 2, GST fusion (KAT6A, Homo sapiens, UniProt Q92794, residues 85-181)
Technique: protein binding microarray
Molecule type: double-stranded DNA, one strand shown
Medium: in vitro
Tested at: not given
Notes: 8-mer, flanks averaged, mean of 2 arrays, mostly near background
Baseline: not given
Reading: higher = stronger binding
Target sequence (chain): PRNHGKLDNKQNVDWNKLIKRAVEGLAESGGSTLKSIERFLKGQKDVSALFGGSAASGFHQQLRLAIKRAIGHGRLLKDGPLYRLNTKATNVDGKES
| Sequence | E-score |
| --- | --- |
| AGTGATTC | 0.0106 |
| ATACGTCG | -0.146 |
| CGATCCTC | -0.0643 |
| ATCTACGA | -0.122 |
| ACGCCTGG | 0.12 |
| AGTCAAAC | -0.128 |
| GACTAATC | 0.14 |
| ATCACCTG | -0.178 |
| ATTCTAAC | -0.0295 |
| CCTATTTA | -0.133 |
| CACCGGCG | 0.103 |
| CGAATTGA | 0.0459 |
| CGATCCAA | -0.0184 |
| CCCTGGTC | 0.0685 |
| AGAGTTGC | -0.00737 |
| CAAGCTTA | 0.114 |

Study 5
Target: TAR DNA-binding protein 43, full length, His tag (TARDBP, Homo sapiens, UniProt Q13148, residues 1-414)
Technique: RNA Bind-n-Seq
Molecule type: RNA
Medium: in vitro
Tested at: 20 nM
Notes: 6-mer, flanks averaged, single round
With: 150 mM LiCl
Baseline: input library
Reading: higher = stronger binding
| Sequence | 6-mer enrichment (R) |
| --- | --- |
| UUUUGG | 1.35 |
| CUACAC | 0.861 |
| UCCACU | 0.882 |
| GCCGAU | 0.899 |
| GUUUUA | 1.24 |
| AAAAGA | 0.794 |
| ACUUUG | 0.945 |
| GAUCGC | 0.963 |
| CUGGAG | 0.965 |
| GUCAGU | 0.98 |
| AGGUGU | 1.35 |
| UGAACC | 0.914 |
| AUGAUA | 0.917 |
| CGAGGC | 0.935 |
| GUAUCU | 0.902 |
| CAGAAA | 0.809 |
| GAGCCA | 0.92 |
| AGUCGC | 0.885 |
| GCCAGU | 0.962 |
| CGCUAA | 0.846 |
| AGACAU | 0.838 |
| UCAUCC | 0.852 |

Excerpt of the above (study 5):
| Sequence | 6-mer enrichment (R) |
| --- | --- |
| CAGAAA | 0.809 |
| GAGCCA | 0.92 |
| AGUCGC | 0.885 |
| GCCAGU | 0.962 |
| CGCUAA | 0.846 |
| AGACAU | 0.838 |
